Measured values collected from several papers.
A part holds a random share of what one study measured. Values joined by “and” are separate records of one study, mostly repeats; a detail may differ.
Sequence of UniProt Q9UIK4 (whole entry, looked up): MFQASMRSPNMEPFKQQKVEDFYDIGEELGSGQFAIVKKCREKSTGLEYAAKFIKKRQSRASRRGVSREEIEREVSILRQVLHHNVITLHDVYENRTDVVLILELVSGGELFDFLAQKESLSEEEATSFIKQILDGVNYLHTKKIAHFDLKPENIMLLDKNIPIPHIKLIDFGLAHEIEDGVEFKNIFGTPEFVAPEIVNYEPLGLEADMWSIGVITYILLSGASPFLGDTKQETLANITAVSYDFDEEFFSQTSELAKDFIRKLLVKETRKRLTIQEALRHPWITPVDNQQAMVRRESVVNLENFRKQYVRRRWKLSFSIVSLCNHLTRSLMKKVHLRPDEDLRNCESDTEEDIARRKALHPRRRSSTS
Sequence of UniProt Q6XUX3 (whole entry, looked up): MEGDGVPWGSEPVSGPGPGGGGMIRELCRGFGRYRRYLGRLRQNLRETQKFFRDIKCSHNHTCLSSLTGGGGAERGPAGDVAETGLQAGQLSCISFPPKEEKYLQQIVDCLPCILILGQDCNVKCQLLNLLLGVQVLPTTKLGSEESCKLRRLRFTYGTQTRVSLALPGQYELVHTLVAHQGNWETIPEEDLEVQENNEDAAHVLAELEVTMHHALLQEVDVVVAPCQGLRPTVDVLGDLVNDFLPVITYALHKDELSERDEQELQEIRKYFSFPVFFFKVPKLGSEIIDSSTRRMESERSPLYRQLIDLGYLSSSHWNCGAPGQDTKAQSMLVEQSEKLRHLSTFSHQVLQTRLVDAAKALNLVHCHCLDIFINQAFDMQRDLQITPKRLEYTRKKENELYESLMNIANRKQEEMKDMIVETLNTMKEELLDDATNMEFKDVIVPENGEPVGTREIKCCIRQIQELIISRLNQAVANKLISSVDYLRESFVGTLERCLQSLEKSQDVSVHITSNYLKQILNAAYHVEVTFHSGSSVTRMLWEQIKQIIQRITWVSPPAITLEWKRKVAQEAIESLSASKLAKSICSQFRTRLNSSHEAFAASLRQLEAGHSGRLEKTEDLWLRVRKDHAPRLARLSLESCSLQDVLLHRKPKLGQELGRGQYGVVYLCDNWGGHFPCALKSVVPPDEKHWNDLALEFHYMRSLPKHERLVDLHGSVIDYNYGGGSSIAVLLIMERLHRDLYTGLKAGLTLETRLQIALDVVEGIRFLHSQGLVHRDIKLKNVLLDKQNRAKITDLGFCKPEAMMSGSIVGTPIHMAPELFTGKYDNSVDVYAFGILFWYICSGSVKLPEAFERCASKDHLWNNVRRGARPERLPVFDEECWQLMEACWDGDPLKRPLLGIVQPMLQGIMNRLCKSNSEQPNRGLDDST

Sample 1
Target: DNA polymerase theta, ATPase domain (POLQ, Homo sapiens, UniProt O75417)
Sequence of UniProt O75417 (whole entry, unmodified, looked up): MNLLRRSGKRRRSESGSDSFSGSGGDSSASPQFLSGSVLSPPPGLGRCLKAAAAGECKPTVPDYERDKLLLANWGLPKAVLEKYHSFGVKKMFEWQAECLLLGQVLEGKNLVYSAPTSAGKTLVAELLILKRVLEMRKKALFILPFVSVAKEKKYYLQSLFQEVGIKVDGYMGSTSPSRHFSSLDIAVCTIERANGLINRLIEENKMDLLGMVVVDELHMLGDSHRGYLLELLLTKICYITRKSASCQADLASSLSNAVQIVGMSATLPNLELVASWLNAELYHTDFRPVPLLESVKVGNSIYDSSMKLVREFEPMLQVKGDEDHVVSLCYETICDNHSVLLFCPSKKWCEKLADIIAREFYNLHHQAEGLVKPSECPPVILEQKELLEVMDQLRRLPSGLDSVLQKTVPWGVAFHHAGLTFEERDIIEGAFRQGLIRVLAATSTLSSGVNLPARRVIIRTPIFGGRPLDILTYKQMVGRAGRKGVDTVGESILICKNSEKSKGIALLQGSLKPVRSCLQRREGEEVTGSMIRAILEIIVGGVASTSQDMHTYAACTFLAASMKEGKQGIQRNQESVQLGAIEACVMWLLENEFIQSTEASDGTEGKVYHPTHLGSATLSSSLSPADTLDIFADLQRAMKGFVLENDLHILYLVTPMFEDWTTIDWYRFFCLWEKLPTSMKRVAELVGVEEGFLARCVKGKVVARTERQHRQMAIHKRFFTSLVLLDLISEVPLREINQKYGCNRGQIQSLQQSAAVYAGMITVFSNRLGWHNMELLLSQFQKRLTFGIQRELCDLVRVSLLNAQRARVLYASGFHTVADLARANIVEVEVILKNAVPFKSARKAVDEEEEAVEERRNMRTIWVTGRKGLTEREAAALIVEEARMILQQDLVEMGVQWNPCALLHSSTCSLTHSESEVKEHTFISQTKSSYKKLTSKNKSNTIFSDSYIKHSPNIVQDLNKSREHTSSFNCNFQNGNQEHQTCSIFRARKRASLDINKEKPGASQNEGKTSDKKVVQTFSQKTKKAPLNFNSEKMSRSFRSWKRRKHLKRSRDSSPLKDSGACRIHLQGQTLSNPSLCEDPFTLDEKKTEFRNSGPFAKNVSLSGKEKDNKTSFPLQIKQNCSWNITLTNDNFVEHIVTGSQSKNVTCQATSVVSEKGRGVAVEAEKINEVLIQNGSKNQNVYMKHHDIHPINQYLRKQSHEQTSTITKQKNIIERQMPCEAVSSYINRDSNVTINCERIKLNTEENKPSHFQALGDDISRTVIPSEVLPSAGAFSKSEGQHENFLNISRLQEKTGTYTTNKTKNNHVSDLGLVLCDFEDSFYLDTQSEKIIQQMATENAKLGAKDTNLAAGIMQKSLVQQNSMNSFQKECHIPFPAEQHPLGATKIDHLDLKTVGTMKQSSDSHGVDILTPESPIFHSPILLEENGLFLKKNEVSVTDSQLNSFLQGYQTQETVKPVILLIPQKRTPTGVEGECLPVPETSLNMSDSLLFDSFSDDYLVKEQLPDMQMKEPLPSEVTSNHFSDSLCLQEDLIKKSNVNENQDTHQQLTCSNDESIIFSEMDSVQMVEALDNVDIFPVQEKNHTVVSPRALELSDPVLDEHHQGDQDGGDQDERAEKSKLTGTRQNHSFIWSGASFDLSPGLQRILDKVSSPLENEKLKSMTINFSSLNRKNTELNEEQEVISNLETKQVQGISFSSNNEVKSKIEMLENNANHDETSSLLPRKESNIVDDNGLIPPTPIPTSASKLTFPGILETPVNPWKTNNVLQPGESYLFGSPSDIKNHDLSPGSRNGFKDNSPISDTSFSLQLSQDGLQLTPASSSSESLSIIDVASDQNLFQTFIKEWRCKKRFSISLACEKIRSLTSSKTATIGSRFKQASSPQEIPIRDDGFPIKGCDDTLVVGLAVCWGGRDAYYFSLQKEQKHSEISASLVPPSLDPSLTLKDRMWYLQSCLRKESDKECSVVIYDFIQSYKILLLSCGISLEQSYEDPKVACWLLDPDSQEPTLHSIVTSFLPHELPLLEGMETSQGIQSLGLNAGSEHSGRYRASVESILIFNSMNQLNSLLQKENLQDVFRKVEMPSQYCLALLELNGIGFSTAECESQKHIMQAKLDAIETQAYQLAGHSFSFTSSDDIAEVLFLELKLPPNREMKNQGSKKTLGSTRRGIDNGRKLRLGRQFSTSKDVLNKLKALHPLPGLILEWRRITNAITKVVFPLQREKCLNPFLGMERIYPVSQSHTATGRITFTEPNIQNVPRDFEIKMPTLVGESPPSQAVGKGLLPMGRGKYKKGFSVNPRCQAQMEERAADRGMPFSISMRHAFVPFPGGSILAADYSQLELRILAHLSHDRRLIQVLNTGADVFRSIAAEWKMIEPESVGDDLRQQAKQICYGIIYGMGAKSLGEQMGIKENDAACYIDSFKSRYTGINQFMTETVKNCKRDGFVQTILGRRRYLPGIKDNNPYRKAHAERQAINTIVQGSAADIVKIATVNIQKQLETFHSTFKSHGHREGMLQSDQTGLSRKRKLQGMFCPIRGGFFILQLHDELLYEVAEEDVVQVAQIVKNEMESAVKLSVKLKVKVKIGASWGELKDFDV
Observed: enzyme activity
Action: inhibitor
Concentration: 77 µM
Baseline: untreated
SMILES	remaining activity
Nc1cccc2c1C(=O)N(C1CCC(=O)NC1=O)C2=O (centres unmarked)	98.4%
CCC(=O)O[C@]1(C(=O)SCF)[C@H](C)C[C@H]2[C@@H]3C[C@H](F)C4=CC(=O)C=C[C@]4(C)[C@@]3(F)[C@@H](O)C[C@@]21C	102% and 95%
COc1c/c(=C2\C=c3ccccc3=N2)[nH]/c1=C\c1[nH]c(C)cc1C	101%
C=C1C(=O)O[C@@H]2/C=C(\C)CC/C=C(\C)CC[C@@H]12	127%
O=C(O)/C=C/C(=O)O	95.9%
N[C@@H](CC(=O)O)C(=O)O	89.5%
Cc1nc(Nc2ncc(C(=O)Nc3c(C)cccc3Cl)s2)cc(N2CCN(CCO)CC2)n1	99.6% and 95.9% and 94.4% and 97.3%
CC(CCc1ccccc1)NCC(O)c1ccc(O)c(C(N)=O)c1 (centres unmarked)	102%

Sample 2
Target: Muscarinic acetylcholine receptor M4 (CHRM4, Homo sapiens, UniProt P08173)
Sequence of UniProt P08173 (whole entry, looked up): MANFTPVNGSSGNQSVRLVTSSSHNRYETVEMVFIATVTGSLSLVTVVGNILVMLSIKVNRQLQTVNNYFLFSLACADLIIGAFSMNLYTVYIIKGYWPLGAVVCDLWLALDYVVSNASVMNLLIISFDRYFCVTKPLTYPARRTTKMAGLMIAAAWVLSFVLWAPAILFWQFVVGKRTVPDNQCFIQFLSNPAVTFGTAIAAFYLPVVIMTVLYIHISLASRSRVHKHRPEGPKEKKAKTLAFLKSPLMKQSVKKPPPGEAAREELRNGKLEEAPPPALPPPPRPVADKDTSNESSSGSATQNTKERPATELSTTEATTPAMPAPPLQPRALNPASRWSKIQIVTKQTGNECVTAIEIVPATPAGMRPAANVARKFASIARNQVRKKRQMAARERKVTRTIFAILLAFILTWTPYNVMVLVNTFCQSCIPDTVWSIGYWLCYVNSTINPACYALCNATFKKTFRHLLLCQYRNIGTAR
Observed: binding
Method: radioligand binding
Concentration: 10 µM
Structure (SMILES)	inhibition [%]
Cc1nc(N2CC[C@@H](O)C2)ncc1-c1cc(C(F)(F)F)cc2[nH]ncc12	5.7
CCOCCn1cc(C(=O)Nc2ccc(-n3nc(-c4cccnc4)cc3C(F)(F)F)cn2)ccc1=O	4.26
Cc1cc(-n2nc(Cc3cc(F)cc(C(F)(F)F)c3)nc2C)ccc1C(N)=O	6.9
Nc1c(C(=O)NCc2ccc(C(=O)NCCCC3CCCCC3)cc2)cnn1-c1ccccc1	-4.14
O=C(NC[C@@H]1[C@H]2CN(C(=O)OCc3cc(C(F)(F)F)cc(C(F)(F)F)c3)C[C@@H]12)c1ccc2[nH]nnc2c1	14.2
CC1=C(C#N)[C@@H](c2ccc3[nH]nc(C)c3c2)C(C#N)=C(c2ccc(Cl)cc2)N1	13
COc1cc(-c2cn(C3CCc4ccccc4N(CC(F)(F)F)C3=O)nn2)ccc1-n1ccc(C)n1 (centres unmarked)	6.94
O=C(O)c1cc(-c2ccc(C3CCNCC3)cc2)c2ccc(-c3ccc(C(F)(F)F)cc3)cc2c1	-4.96
Cc1c(N2CCCC2)nc2ccc(Br)cc2c1C(=O)NC[C@H](CCC(=O)O)c1ccccc1Cl	19.4
COCCc1ccc(-c2c(C)nc3c(N4CCOCC4)ccnn23)cn1	5.21
CC1=C(C#N)C(c2ccc3c(c2)c(NC(=O)c2ccccc2C)nn3C)C(C#N)=C(C)N1	6.87
CN([C@@H]1CCc2c(CC(=O)O)c3cc(S(C)(=O)=O)ccc3n2C1)S(=O)(=O)c1ccc(F)cc1	-1.13
CC(=O)c1c(NS(C)(=O)=O)c2cc(-c3ccc(Cl)cc3)c(-c3ccc(Cl)cc3Cl)nc2n(C)c1=O	16.2
CC(=O)Nc1c(F)cc(C(=O)N[C@H]2CC[C@H](O)CC2)cc1O[C@@H](C)c1ccccc1	-0.27
O=C(Nc1cccnn1)N1CCC(=Cc2cccc(Oc3ccc(C(F)(F)F)cn3)c2)CC1	7.38
CC(C)CC(=O)N1CCc2nc(-c3ccc(Br)cc3)nc(N(C)Cc3ccccc3)c2C1	3.58
Cc1nccc(COC(=O)N2C[C@@H]3[C@@H](CNC(=O)c4ccc5[nH]nnc5c4)[C@@H]3C2)n1	16.1
C[C@H](NC(=O)c1cnc2n1[C@](C)(Cc1ccc(C#N)cc1)C(=O)N2c1cc(Cl)c(F)c(Cl)c1)C(=O)NC1(c2ccccn2)CC1	12.1
O=C(Nc1ccc(-n2nc(-c3cccnc3)cc2C(F)(F)F)cn1)c1ccc(-c2ccccc2)c(F)c1	0.8
Cc1c[nH]c2nccc(Oc3c(F)cc(Nc4cc(Cl)nc(N)n4)cc3F)c12	-12.5
COc1nc2ccc([C@@](O)(c3ccccc3)C3CCN(C(C)=O)CC3)cc2c(Cl)c1Cc1ccc(-n2cccn2)cc1	8.86
CNC(=O)c1ccc(Nc2ncc(C(F)(F)F)c(NCc3nccnc3N(C)S(C)(=O)=O)n2)cc1	-19.4
C[C@@H]1CN(c2cc(-c3nn(C)c4ccc(OC5(C)CC5)cc34)ncn2)C[C@H](C)O1	10.6
Cc1nc(Cc2cccc(C(F)(F)F)c2)sc1-c1ccc(C(N)=O)nc1	2.94
CN(C)C(=O)Cn1cc(-c2nc([C@@](C)(c3ccc(-c4cnc(N)nc4)cc3)C3CC3)no2)cn1	10.3

Sample 3
Compound: Cc1sc(C(=O)NC2COC2)cc1-n1cc(NC(=O)Nc2c(F)cccc2Cl)cn1
Observed: enzyme activity
Concentration: 10 µM
Baseline: untreated control
target	remaining activity
Protein kinase C delta type (PRKCD, Homo sapiens, UniProt Q05655)	95.1%
Bone morphogenetic protein receptor type-1B (BMPR1B, Homo sapiens, UniProt O00238)	101%
Protein kinase C beta type, isoform beta-II (PRKCB, Homo sapiens, UniProt P05771)	96.8%
Dual serine/threonine and tyrosine protein kinase (DSTYK, Homo sapiens, UniProt Q6XUX3)	95.7%
Serine/threonine-protein kinase 3 (STK3, Homo sapiens, UniProt Q13188)	92.8%
Tyrosine-protein kinase Fyn (FYN, Homo sapiens, UniProt P06241)	97.1%
Serine/threonine-protein kinase MARK2 (MARK2, Homo sapiens, UniProt Q7KZI7)	97.9%
MAP/microtubule affinity-regulating kinase 4 (MARK4, Homo sapiens, UniProt Q96L34)	108%
Serine/threonine-protein kinase D2 (PRKD2, Homo sapiens, UniProt Q9BZL6)	95.4%
Death-associated protein kinase 2 (DAPK2, Homo sapiens, UniProt Q9UIK4)	97.3%
Macrophage-stimulating protein receptor (MST1R, Homo sapiens, UniProt Q04912)	88%
Serine/threonine-protein kinase Nek4 (NEK4, Homo sapiens, UniProt P51957)	75.3%

Sample 4
Target: Calcium/calmodulin-dependent protein kinase type II subunit alpha (CAMK2A, Homo sapiens, UniProt Q9UQM7)
Sequence of UniProt Q9UQM7 (whole entry, looked up): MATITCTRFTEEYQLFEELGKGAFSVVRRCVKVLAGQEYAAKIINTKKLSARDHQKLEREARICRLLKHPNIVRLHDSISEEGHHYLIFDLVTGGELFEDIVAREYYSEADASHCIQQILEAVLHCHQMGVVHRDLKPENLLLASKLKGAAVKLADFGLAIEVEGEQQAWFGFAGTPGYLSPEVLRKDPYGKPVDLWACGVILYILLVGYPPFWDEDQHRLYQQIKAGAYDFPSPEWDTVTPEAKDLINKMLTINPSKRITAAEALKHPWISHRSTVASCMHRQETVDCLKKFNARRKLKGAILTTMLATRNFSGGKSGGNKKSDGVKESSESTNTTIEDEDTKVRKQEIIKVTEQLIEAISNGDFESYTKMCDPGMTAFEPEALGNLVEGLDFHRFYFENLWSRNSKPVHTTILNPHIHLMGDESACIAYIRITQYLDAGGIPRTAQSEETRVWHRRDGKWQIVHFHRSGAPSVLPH
Observed: enzyme activity
Action: inhibitor
Concentration: 10 µM
SMILES	inhibition [%]
O=C1c2ccccc2C(=O)c2cc(CO)ccc21	-30
CCn1cc(C(=O)O)c(=O)c2cnc(N3CCNCC3)nc21	0
O=C(O)Cc1ccccc1O	-24
COc1ccc(C[C@H](N)C(=O)N[C@H]2[C@@H](O)[C@H](n3cnc4c(N(C)C)ncnc43)O[C@@H]2CO)cc1	-5
C[C@@H](CO)C1=C(O)c2ccc3c(c2C(=O)C1=O)CCCC3(C)C	-1
O=C(O)C(O)c1ccccc1 (centres unmarked)	10
CC1(C)O[C@@H]2C[C@H]3[C@@H]4C[C@H](F)C5=CC(=O)C=C[C@]5(C)[C@@]4(F)[C@@H](O)C[C@]3(C)[C@]2(C(=O)CO)O1	1
CCc1ccc(O)cc1O	-11
NCCNc1ccc(NCCN)c2c1C(=O)c1ccncc1C2=O	15
CC(C)=CCc1c(O)ccc2ccc(=O)oc12	-11
OC[C@H]1NC[C@@H](O)[C@@H](O)[C@@H]1O	-20
CO/N=C(\C(=O)N[C@@H]1C(=O)N2C(C(=O)O)=CCS[C@H]12)c1csc(N)n1	11
C[n+]1ccccc1C=NO	1
NC(Cc1cccc(O)c1)C(=O)O (racemic)	-5

A few entries again (sample 3):
target	remaining activity
Bone morphogenetic protein receptor type-1B (BMPR1B, Homo sapiens, UniProt O00238)	101%
Protein kinase C beta type, isoform beta-II (PRKCB, Homo sapiens, UniProt P05771)	96.8%
Dual serine/threonine and tyrosine protein kinase (DSTYK, Homo sapiens, UniProt Q6XUX3)	95.7%
Serine/threonine-protein kinase 3 (STK3, Homo sapiens, UniProt Q13188)	92.8%
Tyrosine-protein kinase Fyn (FYN, Homo sapiens, UniProt P06241)	97.1%
Serine/threonine-protein kinase MARK2 (MARK2, Homo sapiens, UniProt Q7KZI7)	97.9%
